Measurements from different studies.
Compare with care: the assays were run in different laboratories. “And” joins repeats or separate records; there may be more than shown. ≈ marks a conversion by molar mass, not a printed value.

SMILES = CC1CC2(N=CCS2)C2(O)OC3CC4(C)C(CC3OC2O1)CC1OC12C4C(O)C(=O)C1(C)C(C3=CC(=O)OC3)CCC12O (stereo not drawn); target or system = Oncopeltus fasciatus; setting = diet, concentration not given; quantity = hatchlings per female; result = 120
SMILES = [2H]C([2H])([2H])C1(C([2H])([2H])[2H])NC(=O)N(c2ccc(F)c(C(C)(F)F)c2)C1=O; target or system = Schistosoma haematobium; test system = adult, hamster; setting = oral, single dose; quantity = ED50; result = 8.5 mg/kg
SMILES = Cc1ccc(Nc2n[nH]c3nc(-c4ccccc4)nc(N)c23)cc1; target or system = Human rhinovirus 8; assay = cytopathic effect, inhibitor; test system = HeLa; quantity = IC50; result = 7.02 µM
SMILES = CC(C)(C)NCC(SS(=O)(=O)O)c1ccccc1 (stereo not drawn); target or system = Schistosoma mansoni; assay = perfusion day 52; test system = infected Swiss Webster mice; setting = 400 mg/kg single dose, dosed day 7 post-infection; quantity = liver weight; result = 3.4 g and 4.66 g and 5 g and 2.98 g and 4.9 g
SMILES = Cc1c(CN(C)C(=O)/C=C/c2cnc3c(c2)CC(N)C(=O)N3)oc2ccccc12 (stereo not drawn); target or system = Escherichia coli; assay = broth microdilution; test system = AR-0493; quantity = MIC; result = 4 µg/mL (≈ 10.2 µM)
SMILES = CC(=O)OC[C@H]1O[C@@H](Sc2sc(C(=O)c3ccc(Cl)cc3)c(N)c2-c2nc3ccccc3s2)[C@H](OC(C)=O)[C@@H](OC(C)=O)[C@H]1OC(C)=O; target or system = human alphaherpesvirus 1; assay = plaque reduction; setting = non-toxic concentration; quantity = viral titre reduction; result = 10%
SMILES = Cc1nc2ccc(OC(F)(F)F)cn2c1C(=O)NCc1ccc2oc(-c3ccc(Cl)cc3)nc2c1; target or system = Mycobacteroides abscessus; assay = RFP fluorescence; test system = ATCC 19977, RFP reporter; quantity = MIC90; result = > 100 µM
SMILES = CC(=O)O[C@@H]1[C@@H](OC(C)=O)[C@H](Sc2sc(C(=O)c3ccc(Br)cc3)c(N)c2-c2nc3ccccc3s2)OC[C@H]1OC(C)=O; target or system = human alphaherpesvirus 1; assay = plaque reduction; setting = non-toxic concentration; quantity = viral titre reduction; result = 80%
SMILES = CCc1nc2ccccn2c1C(=O)NCc1ccc2oc(-c3ccc(OC(F)(F)F)cc3)nc2c1; target or system = Mycobacteroides abscessus; assay = RFP fluorescence; test system = ATCC 19977, RFP reporter; quantity = MIC90; result = > 100 µM
SMILES = Cc1ncsc1-c1ccc(C(C)NC(=O)C2CC(O)CN2C(=O)C(NC(=O)CCCCCCCCCCN2CCCC(Nc3ncc(Cl)c(Nc4ccccc4S(=O)(=O)C(C)C)n3)C2)C(C)(C)C)cc1 (stereo not drawn); target or system = 22Rv1; assay = RNA-seq, refers to: STOML1 mRNA; setting = concentration not given; how to read = relative to: DMSO; quantity = log2 fold change; result = -1.31
SMILES = O=[N+]([O-])c1cc(Br)cc([N+](=O)[O-])c1NS(=O)(=O)c1ccc(Br)cc1; target or system = Arabidopsis thaliana wild type; setting = 20 µM; quantity = germination rate; result = > 90%
SMILES = CC1(C)[C@H](NC(=O)/C(=N\OCC(=O)N2CCC(C(=O)O)CC2)c2csc(N)n2)C(=O)N1OS(=O)(=O)O; target or system = Enterobacter cloacae; assay = agar dilution; test system = ATCC 43560, susceptible; quantity = MIC; result = 1 µg/mL (≈ 1.82 µM)
SMILES = COc1cc(C(=O)O)ccc1NC(=O)c1ccc(NC(=O)c2ccc(NC(=O)[C@H](Cc3c[nH]nn3)NC(=O)c3ccc(NC(=O)/C(C)=C/c4ccc(O)cc4)cc3)cc2)c(OC)c1; target or system = Enterococcus faecium; assay = broth microdilution; test system = ciprofloxacin-sensitive; quantity = MIC; result = 32 µg/mL (≈ 37.5 µM)
SMILES = Nc1nc(-c2ccccc2)nc2[nH]nc(Nc3ccccc3F)c12; target or system = Human rhinovirus 8; assay = cytopathic effect, inhibitor; test system = HeLa; quantity = IC50; result = 13.8 µM
SMILES = CC[C@H](C)[C@@H]1NC(=O)[C@@H]([C@@H](C)O)NC(=O)CNC(=O)[C@H](CC(=O)O)NC(=O)CNC(=O)[C@H](CC(=O)O)NC(=O)CNC(=O)[C@H]2CCCCN2C(=O)[C@@H](NC(=O)[C@H](CC(=O)O)NC(=O)/C=C/CCCCCCCCCC(C)C)CNC(=O)[C@@H]2CCCN2C1=O; target or system = Enterococcus; assay = broth microdilution; test system = VRE 155, Mueller-Hinton broth, Mg2+ 10 mg/L; setting = 16 h, added: Ca2+ 0 mM; quantity = MIC; result = > 128 µg/mL
SMILES = CC(=O)OC[C@H]1O[C@@H](Sc2sc(C(=O)c3ccc(Br)cc3)c(N)c2-c2nc3ccccc3s2)[C@H](OC(C)=O)[C@@H](OC(C)=O)[C@H]1OC(C)=O; target or system = human alphaherpesvirus 1; assay = plaque reduction; setting = non-toxic concentration; quantity = viral titre reduction; result = 40%
SMILES = Cc1cccc2c1N(C(=O)n1ccnn1)CC2; target or system = Arabidopsis thaliana; test system = kai2 mutant, seeds; setting = 30 µM; quantity = germination rate; result = 14.8% and 33.3% and 3% and 11.1% and 32.1%
SMILES = CN(Cc1ccc(C2(C(F)(F)F)CCC2)cc1)Cc1cccc2ccccc12; target or system = Trichophyton rubrum; assay = microbial growth, disc diffusion; test system = ATCC28188; setting = 0.0005 µg/mL, 6 days; quantity = inhibition zone; result = 0 mm
SMILES = Nc1nc(-c2ccccc2)nc2[nH]nc(Nc3cc(F)ccc3F)c12; target or system = Human rhinovirus 8; assay = cytopathic effect, inhibitor; test system = HeLa; quantity = IC50; result = 107 µM
SMILES = CC1(C)[C@H](NC(=O)/C(=N\OCc2c(Cl)cccc2Cl)c2csc(N)n2)C(=O)N1OS(=O)(=O)O; target or system = Enterobacter cloacae; assay = agar dilution; test system = CDC 1000654; quantity = MIC; result = > 64 µg/mL
SMILES = Nc1nc(-c2ccccc2)nc2[nH]nc(Nc3c(F)cc(F)cc3F)c12; target or system = Human rhinovirus 8; assay = cytopathic effect, inhibitor; test system = HeLa; quantity = IC50; result = 11.5 µM
SMILES = COC1C=COC2(C)Oc3c(C)c(O)c4c(c3C2=O)C2=NC3(CCN(CC(C)C)CC3)NC2=C(NC(=O)C(C)=CC=CC(C)C(O)C(C)C(O)C(C)C(OC(=O)Nc2cccnn2)C1C)C4=O (stereo not drawn); target or system = Mycobacteroides abscessus; assay = bacterial growth; test system = subsp. abscessus Bamboo; quantity = IC90; result = 0.1 µM
SMILES = C=C[C@]1(C)C[C@@H](OC(=O)CSc2ccc(NC(=O)c3ccco3)cc2)[C@]2(C)[C@H](C)CC[C@]3(CCC(=O)[C@H]32)[C@@H](C)[C@@H]1O; target or system = Mycoplasma gallisepticum; test system = infected chickens, lung; setting = intramuscular, 70 mg/kg daily x3, 72 h; quantity = lung mycoplasma count; result = 2.54 log10 CFU/mL and 2 log10 CFU/mL and 2.78 log10 CFU/mL and 3 log10 CFU/mL and 3.01 log10 CFU/mL and 3.23 log10 CFU/mL and 2.39 log10 CFU/mL
SMILES = Nc1nc(-c2ccccc2)nc2[nH]nc(Nc3ccc(OC(F)(F)F)cc3)c12; target or system = Human rhinovirus 8; assay = cytopathic effect, inhibitor; test system = HeLa; quantity = IC50; result = 6.73 µM
SMILES = OC(Cn1cncn1)(Cn1cc(-[c-]2cccc2)nn1)c1ccc(F)cc1F.[Cl-].[Co+3].c1cc[cH-]c1 (racemic); target or system = Trichuris muris; assay = Worminator; test system = adult males and females; setting = 100 µM, day 3; quantity = motility inhibition; result = 15%
SMILES = CCc1nc2cc(Br)ccn2c1C(=O)NCc1ccc2oc(-c3ccc(Cl)cc3)nc2c1; target or system = Mycobacteroides abscessus; assay = RFP fluorescence; test system = ATCC 19977, RFP reporter; quantity = MIC90; result = > 25 µM
SMILES = Nc1nc(-c2ccncc2)nc2[nH]nc(Nc3ccc(F)cc3)c12; target or system = Human rhinovirus 8; assay = cytopathic effect, inhibitor; test system = HeLa; quantity = IC50; result = 33.9 µM
SMILES = CCc1nc2ccc(Br)cn2c1C(=O)NCc1ccc2oc(-c3ccc(OC(F)(F)F)cc3)nc2c1; target or system = Mycobacteroides abscessus; assay = RFP fluorescence; test system = ATCC 19977, RFP reporter; quantity = MIC90; result = > 50 µM
SMILES = C=CC(=O)Nc1cccc(Cn2ncc3cnc(Nc4cnn(CCOC)c4)nc32)c1; target or system = DDR2 human; assay = binding, KINOMEscan; setting = 100 nM; how to read = lower = stronger binding; quantity = percent of control; result = 80%
SMILES = CNCc1ccc2c(c1)C[C@H](CNC(=N)N)[C@H]2NC(=O)C(=O)Nc1ccc(Cl)c(F)c1; target or system = Human immunodeficiency virus 1; assay = viral infection, Env pseudovirus; test system = TZM-bl, 620345.c01 CRF01_AE; quantity = IC80; result = > 100 µM
SMILES = C=C(NC(=O)c1csc(-c2nc3c(cc2O)-c2nc(cs2)C(=O)NC(C(C)O)C(=O)NC(=C(C)OC)c2nc(cs2)C(=O)NC2c4nc(cs4)C(=O)NC(COC(=O)c4c5c6c(cccc6n4O)COC(=O)C(OC4CC(C)(O)C(N(C)C)C(C)O4)C2OC5)c2nc-3cs2)n1)C(N)=O (stereo not drawn); target or system = Enterococcus faecium; test system = -30 vancomycin-intermediate, mice, systemic infection; setting = intravenous, 2 and 8 h post-infection, survival over 7 days; quantity = ED50; result = 1.35 mg/kg
SMILES = Cc1nc2cc(Br)ccn2c1C(=O)NCc1ccc2oc(-c3ccc(OC(F)(F)F)cc3)nc2c1; target or system = Mycobacteroides abscessus; assay = RFP fluorescence; test system = ATCC 19977, RFP reporter; quantity = MIC90; result = > 25 µM
SMILES = COC1CN([C@H]2CC[C@H]([C@@]3(C)Oc4c(Cl)cc(C(=O)NCc5c(SC)cc(C)[nH]c5=O)c(C)c4O3)CC2)C1; assay = RNA-seq, refers to: TGM3 mouse homolog; test system = mouse, HT-1376 xenograft, whole blood; setting = dose not given; how to read = relative to: vehicle; quantity = log2 fold change; result = 0.024
SMILES = Cc1ccc(Nc2n[nH]c3nc(-c4cccc(F)c4)nc(N)c23)cc1; target or system = Human rhinovirus 8; assay = cytopathic effect, inhibitor; test system = HeLa; quantity = IC50; result = 7.48 µM
SMILES = CCc1nc2ccc(C(F)(F)F)cn2c1C(=O)NCc1ccc2oc(-c3ccc(OC(F)(F)F)cc3)nc2c1; target or system = Mycobacteroides abscessus; assay = RFP fluorescence; test system = ATCC 19977, RFP reporter; quantity = MIC90; result = > 100 µM
SMILES = CC1(C)[C@H](NC(=O)/C(=N\OCCN)c2csc(N)n2)C(=O)N1OS(=O)(=O)O; target or system = Enterobacter cloacae; assay = agar dilution; test system = CDC 1000654; quantity = MIC; result = > 64 µg/mL
SMILES = Nc1nc(-c2ccccc2)nc2[nH]nc(Nc3ccccc3C(F)(F)F)c12; target or system = Human rhinovirus 8; assay = cytopathic effect, inhibitor; test system = HeLa; quantity = IC50; result = 25.1 µM
SMILES = CCc1nc2ccc(OC(F)(F)F)cn2c1C(=O)NCc1ccc2oc(-c3ccc(OC(F)(F)F)cc3)nc2c1; target or system = Mycobacteroides abscessus; assay = RFP fluorescence; test system = ATCC 19977, RFP reporter; quantity = MIC90; result = > 50 µM
SMILES = Fc1ccc2c(c1)c1nc3ccc(Br)cc3c-1cn2Cc1cn(-c2ccccc2I)nn1; target or system = Giardia duodenalis; assay = UHPLC-Q-TOF-MS metabolomics, refers to: SM(d18:1/16:0); test system = trophozoites; setting = IC50 concentration, 0.2357 h, RT 14.14 min, m/z 740.5; how to read = relative to: 0.25% DMSO vehicle; quantity = fold change; result = 1.74

Some of these lines once more:
SMILES = Nc1nc(-c2ccncc2)nc2[nH]nc(Nc3ccc(F)cc3)c12; target or system = Human rhinovirus 8; assay = cytopathic effect, inhibitor; test system = HeLa; quantity = IC50; result = 33.9 µM
SMILES = Nc1nc(-c2ccccc2)nc2[nH]nc(Nc3ccccc3C(F)(F)F)c12; target or system = Human rhinovirus 8; assay = cytopathic effect, inhibitor; test system = HeLa; quantity = IC50; result = 25.1 µM
SMILES = CC1(C)[C@H](NC(=O)/C(=N\OCCN)c2csc(N)n2)C(=O)N1OS(=O)(=O)O; target or system = Enterobacter cloacae; assay = agar dilution; test system = CDC 1000654; quantity = MIC; result = > 64 µg/mL
SMILES = COC1C=COC2(C)Oc3c(C)c(O)c4c(c3C2=O)C2=NC3(CCN(CC(C)C)CC3)NC2=C(NC(=O)C(C)=CC=CC(C)C(O)C(C)C(O)C(C)C(OC(=O)Nc2cccnn2)C1C)C4=O (stereo not drawn); target or system = Mycobacteroides abscessus; assay = bacterial growth; test system = subsp. abscessus Bamboo; quantity = IC90; result = 0.1 µM
